Measurements gathered from unrelated publications.
Protocols differ between the studies behind these lines.
ESR1: Estrogen receptor (ESR1, Homo sapiens, UniProt P03372)
Sequence of UniProt P03372 (whole entry, unmodified, looked up): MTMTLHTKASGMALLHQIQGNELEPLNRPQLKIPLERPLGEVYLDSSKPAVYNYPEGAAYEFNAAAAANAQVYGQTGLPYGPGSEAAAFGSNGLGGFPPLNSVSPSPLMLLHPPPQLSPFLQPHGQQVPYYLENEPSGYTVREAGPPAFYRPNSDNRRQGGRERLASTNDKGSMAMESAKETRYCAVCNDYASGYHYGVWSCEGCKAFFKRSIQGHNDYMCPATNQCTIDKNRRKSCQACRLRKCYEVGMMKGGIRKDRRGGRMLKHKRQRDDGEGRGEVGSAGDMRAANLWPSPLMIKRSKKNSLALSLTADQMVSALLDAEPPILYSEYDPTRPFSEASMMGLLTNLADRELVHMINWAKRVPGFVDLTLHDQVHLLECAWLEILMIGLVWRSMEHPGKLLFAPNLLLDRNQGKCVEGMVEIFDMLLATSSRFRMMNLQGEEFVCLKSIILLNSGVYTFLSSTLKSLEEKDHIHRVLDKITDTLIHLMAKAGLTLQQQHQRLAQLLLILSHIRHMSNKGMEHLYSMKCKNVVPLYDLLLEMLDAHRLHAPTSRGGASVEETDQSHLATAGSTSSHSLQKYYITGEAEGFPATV

| Structure (SMILES) | target | assay | system | conditions | scale | endpoint | value |
| --- | --- | --- | --- | --- | --- | --- | --- |
| COc1cc(/C=N/NC(=O)c2cc3c(ccc4ccccc43)o2)cc(OC)c1O | ESR1 | PGC-1α coactivator displacement, inhibitor, TR-FRET | – | up to 100 µM, together with: estradiol | – | activity | inactive |
| OC[C@H]1O[C@@H](Oc2cc3c(O)cc(O)cc3[o+]c2-c2ccc(O)c(O)c2)[C@H](O)[C@@H](O)[C@@H]1O.[Cl-] | ESR1 | array formation | PRL-HeLa | – | reference: EC50 ERβ over EC50 ERα | selectivity ratio | 0.406 |
| O=C1CC[C@H](N2Cc3c(ccc4c3OCC43CCN(C[C@@H]4CCC5(CCN(c6ccc([C@@H]7c8ccc(O)cc8CC[C@@H]7c7ccccc7)cc6)CC5)OC4)CC3)C2=O)C(=O)N1 | Estrogen receptor (ESR1, Homo sapiens, UniProt P03372, D538G) | degrader, western blot | MCF7 ESR1 D538G | 10 and 100 nM, 7 h | – | ER level reduction | > 80% |
| CCCN1CC(Oc2ccc([C@@H]3c4[nH]c5ccccc5c4C[C@@H](C)N3CC(C)(C)F)cc2)C1 | ESR1 | alkaline phosphatase, agonist | Ishikawa | 72 h, estrogen-depleted medium, no estradiol | – | Emax | 0% |
| C[C@]12CC[C@@H]3c4ccc(O)cc4C[C@@H](CCCCCCCCC[S+]([O-])CCCC(F)(F)C(F)(F)F)[C@H]3[C@@H]1CC[C@@H]2O (stereo partly drawn) | ESR1 | antagonist, CALUX reporter | U2OS | 3e-06 µg/mL | – | antagonist response | 44.9% |
| O=c1cc(-c2ccccc2)oc2cc(O[C@@H]3O[C@H](CO[C@@H]4O[C@H](CO)[C@@H](O)[C@H](O)[C@H]4O)[C@@H](O)[C@H](O)[C@H]3O)c(O)c(O)c12 | ESR1 | array formation | PRL-HeLa | – | reference: EC50 ERβ over EC50 ERα | selectivity ratio | 12.9 |
| O=C1CC[C@H](N2Cc3cc(N4CCN(CC5CCN(c6ccc([C@@H]7c8ccc(O)cc8CC[C@@H]7c7ccccc7)cc6)CC5)CC4)ccc3C2=O)C(=O)N1 | Estrogen receptor (ESR1, Homo sapiens, UniProt P03372, Y537S) | degrader, western blot | MCF7 ESR1 Y537S | 10 and 100 nM, 7 h | – | ER level reduction | > 80% |
| O=C1CC[C@H](N2Cc3cc(N4CCN(CC5CCN(c6ccc([C@@H]7c8ccc(O)cc8CC[C@@H]7c7ccccc7)cc6)CC5)CC4)ccc3C2=O)C(=O)N1 | ESR1 | degrader | NOD/SCID mouse MCF7 xenograft, tumour lysate | oral, 10 mg/kg daily x3, 18 h post last dose | reference: vehicle | protein level reduction | ≥ 90% |
| O=c1c(O)c(-c2ccc(O)c(O)c2)oc2cc(O)ccc12 | ESR1 | array formation | PRL-HeLa | – | reference: EC50 ERβ over EC50 ERα | selectivity ratio | 0.313 |

Repeated from above:
| Structure (SMILES) | target | assay | system | conditions | scale | endpoint | value |
| --- | --- | --- | --- | --- | --- | --- | --- |
| O=C1CC[C@H](N2Cc3c(ccc4c3OCC43CCN(C[C@@H]4CCC5(CCN(c6ccc([C@@H]7c8ccc(O)cc8CC[C@@H]7c7ccccc7)cc6)CC5)OC4)CC3)C2=O)C(=O)N1 | Estrogen receptor (ESR1, Homo sapiens, UniProt P03372, D538G) | degrader, western blot | MCF7 ESR1 D538G | 10 and 100 nM, 7 h | – | ER level reduction | > 80% |
| C[C@]12CC[C@@H]3c4ccc(O)cc4C[C@@H](CCCCCCCCC[S+]([O-])CCCC(F)(F)C(F)(F)F)[C@H]3[C@@H]1CC[C@@H]2O (stereo partly drawn) | ESR1 | antagonist, CALUX reporter | U2OS | 3e-06 µg/mL | – | antagonist response | 44.9% |
